Measurements collected from several papers.
Each numbered part is a random draw from the data of one study; scales do not carry over between parts.

Block 1 — method: protein-binding microarray; molecule type: double-stranded DNA, one strand shown; medium: in vitro; concentration: 0.8 µM; notes: whole 60-bp probe, no competitor; reading: higher = stronger binding
Target: Centromere-binding protein 1, full length, N-terminal tag (CBF1, Saccharomyces cerevisiae, UniProt P17106, residues 1-351)
Chain of UniProt P17106 (whole entry, looked up): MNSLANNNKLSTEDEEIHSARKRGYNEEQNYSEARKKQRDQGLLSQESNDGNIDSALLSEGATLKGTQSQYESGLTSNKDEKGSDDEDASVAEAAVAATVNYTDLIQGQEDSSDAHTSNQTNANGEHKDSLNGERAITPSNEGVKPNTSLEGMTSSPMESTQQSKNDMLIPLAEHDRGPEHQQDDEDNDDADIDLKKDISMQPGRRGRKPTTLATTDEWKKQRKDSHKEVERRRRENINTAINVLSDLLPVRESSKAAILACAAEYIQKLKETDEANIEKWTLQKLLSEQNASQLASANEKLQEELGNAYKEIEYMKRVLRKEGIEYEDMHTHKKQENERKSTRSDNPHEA
`CTAAATTTCTGTTACCACGGGGTTGTCAGTGGATTCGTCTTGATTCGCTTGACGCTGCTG` has a fluorescence intensity of 672 a.u.
With `CTACAAAAACAAAACCGCATCACCTTTGGCAGCTTCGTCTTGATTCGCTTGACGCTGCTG` the fluorescence intensity was 494 a.u.
`CTAGCGGGGAGACGTGTTGTTTTTCCACGGCTTTTCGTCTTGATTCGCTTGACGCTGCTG` gave a fluorescence intensity of 523 a.u.
The fluorescence intensity of `GAAGCGTAAAGTAGTCTCATGAAGTAGATGAGTTAGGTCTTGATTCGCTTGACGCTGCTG` is reported as 541 a.u.
For `CTATTCTTTCTTCTTCATGTGCATGCACTCTTTTTCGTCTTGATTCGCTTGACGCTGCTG`, the fluorescence intensity was 705 a.u.
The fluorescence intensity of `GAAAGTATTTGGAGGCACGTCCCGGACTAAAGATAGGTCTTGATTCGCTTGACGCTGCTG` is reported as 539 a.u.
With `GAAGTACCAAAAATGCACGTGTCTGTACACAATTAGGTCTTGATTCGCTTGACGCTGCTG` the fluorescence intensity was 6430 a.u.
With `GAACAGCTGTAATCTATCGTGGTCATTTCTTGTTAGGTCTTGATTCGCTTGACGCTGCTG` the fluorescence intensity was 536 a.u.
For `GAAACCCACATTTAATGCGTGACGTTGAATCGATAGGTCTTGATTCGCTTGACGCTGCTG`, the fluorescence intensity was 823 a.u.
For `CTACCCATAATGTTGCACGTGACAGGTTTGTATTTCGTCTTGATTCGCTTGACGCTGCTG`, the fluorescence intensity was 20000 a.u.
With `GAAGCCAAAGTAAACCCCGTGTACTTTCAAAAGTAGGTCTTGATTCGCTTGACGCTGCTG` the fluorescence intensity was 793 a.u.
For `GAATTCCTATTTGAGTTCGTGGTGTTAGTATTCTAGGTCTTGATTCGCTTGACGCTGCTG`, the fluorescence intensity was 545 a.u.
`CTAAGCCGGTGTAGCCACGTGTTAAATCTTGACTTCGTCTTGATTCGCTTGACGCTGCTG` gave a fluorescence intensity of 3950 a.u.
With `GAAGCCATTTGCAGACACGTTTTTACTATATTTTAGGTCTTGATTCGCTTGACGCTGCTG` the fluorescence intensity was 762 a.u.
The fluorescence intensity of `GAACCACTATTTCGTCACCCGCTCGAGGTGGCTTAGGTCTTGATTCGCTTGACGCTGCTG` is reported as 514 a.u.
For `CTAAGTAGCTGTCATCATCACCTACAAATGTGTTTCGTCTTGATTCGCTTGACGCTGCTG`, the fluorescence intensity was 535 a.u.
The fluorescence intensity of `TGTACGAAGCTATCGTGCATGACTATAGTAGTTAGGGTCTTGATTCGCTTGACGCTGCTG` is reported as 523 a.u.
`CTAATTCGGCTCGATCATGAGGATTTCGGGCCGTTCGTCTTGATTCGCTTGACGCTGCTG` has a fluorescence intensity of 531 a.u.
`GAAACCATAGCAACTCATGTCACTATTAATTACTAGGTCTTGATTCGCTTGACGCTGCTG` has a fluorescence intensity of 508 a.u.
With `TGTACGAAGCTATCTCATCAGACTATAGTAGTTAGGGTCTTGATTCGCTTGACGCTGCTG` the fluorescence intensity was 544 a.u.
For `CTATCTTCCATATCCCACGTAATGGCAATTGGCTTCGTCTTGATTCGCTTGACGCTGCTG`, the fluorescence intensity was 551 a.u.
For `GAAAATTTCATAAAACACGTTTTAGTACCAGAATAGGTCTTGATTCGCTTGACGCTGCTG`, the fluorescence intensity was 586 a.u.
The fluorescence intensity of `CTAAAAATGCATTGTCACACGCTGTAGTGCTCGTTCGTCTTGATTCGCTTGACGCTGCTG` is reported as 560 a.u.
With `GAATTGTGTATGCGTTGTGACGTACGGAAGGCATAGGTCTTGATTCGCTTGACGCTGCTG` the fluorescence intensity was 543 a.u.
The fluorescence intensity of `CTAATTATCAAACGTCACCTGCGTATTATCAACTTCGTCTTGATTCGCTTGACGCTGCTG` is reported as 892 a.u.

Block 2 — method: universal PBM; molecule type: double-stranded DNA, one strand shown; medium: in vitro; concentration: not given; reading: higher = stronger binding
Target: Sal-like protein 4, full length isoform B (SALL4, Homo sapiens, UniProt Q9UJQ4-2, residues 1-616)
Notes: 8-mer, flanks averaged, mean of replicates
The E-score of `ACTCGGAG` is reported as -0.108.
For `AACCGGGT`, the E-score was -0.337.
The E-score of `ACACGTAT` is reported as 0.134.
`AAGGGATC` has an E-score of -0.0757.
With `AGTTCTAA` the E-score was 0.172.
The E-score of `AATCTGCA` is reported as 0.0493.
For `GCCTGCCA`, the E-score was -0.208.
For `TCCAGGGA`, the E-score was -0.284.
The E-score of `GGTGGGAA` is reported as -0.152.
With `CATAAACC` the E-score was 0.222.
For `ACCTAGGG`, the E-score was -0.161.
For `CGGTCATC`, the E-score was -0.236.
The E-score of `TGTAGGAA` is reported as 0.125.
`AGGGGAGC` has an E-score of -0.327.
The E-score of `GCATTGTA` is reported as 0.123.
`AAATCGAC` has an E-score of 0.00179.
The E-score of `TACATGTA` is reported as 0.243.
`GGAAGTAC` has an E-score of -0.0299.
`AACATCAA` gave an E-score of 0.247.
The E-score of `CACAGATG` is reported as 0.0888.
For `GGTTTAGA`, the E-score was 0.106.
With `CATCATCC` the E-score was -0.0958.
The E-score of `AGTATTTC` is reported as 0.174.
`ACGACGAT` gave an E-score of -0.0105.
For `AGGCCACT`, the E-score was -0.15.

Block 3 — method: RNA Bind-n-Seq; molecule type: RNA; medium: in vitro; concentration: 365 nM; baseline: no-protein control; reading: higher = stronger binding
Target: RNA binding protein fox-1 homolog 2, RRM domain, GST-SBP tag (RBFOX2, Homo sapiens, UniProt O43251-10, residues 100-194)
Notes: natural RNA segment, single round, ends assumed
Construct (chain): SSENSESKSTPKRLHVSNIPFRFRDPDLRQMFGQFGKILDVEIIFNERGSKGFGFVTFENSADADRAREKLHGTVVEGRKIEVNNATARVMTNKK
For `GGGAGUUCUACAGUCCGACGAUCGAUUACCUGAUAUCUAGAUAUAUAAUUAUAUGUGUGAAUAAAUGUGACAGAACUUGAUUAUUUCAUCUUUUCCCACAAUUGUGCUUUAUUGGAUGUGAUGUUUCUUGCAUUGGAAUUCUCGGGUGCCAA`, “RBNS enrichment (R)” read 0.632.
Under “RBNS enrichment (R)”, `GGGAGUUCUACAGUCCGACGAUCACAGUUUUCCCAAGGAACACGUACAAGAUCAUUUAGCCACUACUCUGCUGCCUCUCAGCCUCUGCUGGGGCUUCCAGCUGGGUACAUGGCUGCUUGGCCGUUUGGGGCGGUGGAAUUCUCGGGUGCCAA` is recorded as 0.224.
`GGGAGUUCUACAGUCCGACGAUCGGCUGUGCGUGGCAGGACAGAAGCACUGUAAAGGGCUCUCCAGCCGCAGCUCAGCUGCACUGCGUUCCGAGGUGAAGUCUUGCCCCUGAAUUUUGCAAAAUGGGAAAGUGUGGAAUUCUCGGGUGCCAA` — result for “RBNS enrichment (R)”: 0.57.
For `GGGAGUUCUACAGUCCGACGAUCGAGUUUGUUCAUUUAUUCUCUCUGUAAAACAAGCUGUGCUUUUUUUCUUCUGCCUUUAAAAUGCCACCCGUGUAUUCAAACCAUGGCCACUUGAUACUUAUGUAGAAUCCUGGAAUUCUCGGGUGCCAA`, “RBNS enrichment (R)” read 0.52.
`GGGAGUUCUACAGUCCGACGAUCACACUCAUCCCUGGUCGUCUAUCCCAGUGUGUGUUUAACAUUCACAGCCCAGAACCACAGAUGUGUCUGGGAGAGCCUGGCAAGGCAUUCCUCAUCACCAUCGUGUUUGCUGGAAUUCUCGGGUGCCAA`: “RBNS enrichment (R)” 0.294.
`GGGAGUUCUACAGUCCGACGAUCAUCUGCGACUCAGUUGAUUGGCUGCUCUCUGAAGAGGAAGAGGAGAAAGCCAGAGAGUCACUCUUACCUCCCUGUCUGCUUACUCACCCACUCUGUCCUUUCCUCACCAAUGGAAUUCUCGGGUGCCAA` — result for “RBNS enrichment (R)”: 0.426.
`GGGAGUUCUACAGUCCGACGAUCAGCCUCAAAGCUGCUGUACCUGCACAUGGUCCUGAGAACAUCUCUCUAGGCCUGUACCACACCUCUCUGCCUGUAGAACCUGUGAGAUCAUUGCCUGUGGCCUCUGUCACUGGAAUUCUCGGGUGCCAA`: “RBNS enrichment (R)” 0.41.
Under “RBNS enrichment (R)”, `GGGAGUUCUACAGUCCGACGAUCCCCCAUGACCCUGUAGAAAUUGAAUCCUGCUCACAACAUUGUUGGCCUUCUUACUAACCUUGGACCGUGAUUGAGCCCAAGAAACCAGGGACUUACGCAUUUGGCCAAUGUGGAAUUCUCGGGUGCCAA` is recorded as 0.789.
`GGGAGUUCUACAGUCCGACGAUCAGAAAUUCAAGAAAAAAUGACAUUAAAUCAUCUGUGCAUUUCAUAUACAGGAGAGUUAUCUCCUUCCGAAGUUUCUGGUUCUUUUCUUUAUUCGUCCCCUCCCUCUGCUUUGGAAUUCUCGGGUGCCAA`: “RBNS enrichment (R)” 0.452.

Block 4 — method: RNA Bind-n-Seq; molecule type: RNA; medium: in vitro; concentration: 100 nM; baseline: input RNA pool; reading: higher = stronger binding
Target: RING finger protein unkempt homolog, zinc fingers 1-6, SBP tag (UNK, Homo sapiens, UniProt Q9C0B0, residues 30-357)
Chain of UniProt Q9C0B0 (30-357, looked up): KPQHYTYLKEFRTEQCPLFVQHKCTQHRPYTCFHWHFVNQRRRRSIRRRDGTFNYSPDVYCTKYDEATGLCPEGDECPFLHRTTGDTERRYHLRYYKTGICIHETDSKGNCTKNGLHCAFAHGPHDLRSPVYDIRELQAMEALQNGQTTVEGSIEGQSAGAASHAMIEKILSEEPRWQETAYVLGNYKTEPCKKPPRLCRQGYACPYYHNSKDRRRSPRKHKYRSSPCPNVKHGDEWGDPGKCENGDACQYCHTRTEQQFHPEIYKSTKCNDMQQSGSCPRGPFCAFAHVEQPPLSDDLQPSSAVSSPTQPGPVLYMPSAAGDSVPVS
Notes: RNA with constant flanks, vertebrate orthologous sites, ends assumed
`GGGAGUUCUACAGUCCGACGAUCGAGCUAAAGGAGUUAGCAUCUUUAUUUUUGUAUCAAAGAUAAAGGUUAUUUUGAAAUUAUUAGGGUUUUUACACAAUUCUGAAAUCUGUUGCUUUUGUAAACAAAUUGUUUGAUCUUAGUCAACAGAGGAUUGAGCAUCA` gave a bound/input enrichment of 1.09 ratio.
The bound/input enrichment of `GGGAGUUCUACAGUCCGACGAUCGGUUGAUGUUCUGAAGAACCACUUAGUAAAAGAAGGUCGGGUAGAUGAAGAAAUUGCACUUAGAAUUAUCAAUGAGGGUGCGGCCAUCCUUCGGAGAGAGAAAACCAUGAUAGAAGUAGACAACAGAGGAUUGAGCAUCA` is reported as 1.23 ratio.
`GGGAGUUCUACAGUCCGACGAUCGUAAUGCAUUUUGCGACUUGGAUGUGGUCUGCACAGGAAGCUGCUGGCCCCGCCACAACACAUACAGUUUUUGUCUUUUUUUAAAAAGUUAAAACUGAAUUUAAUUUACUAAAAUUGUAACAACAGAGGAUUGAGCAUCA` gave a bound/input enrichment of 0.164 ratio.
With `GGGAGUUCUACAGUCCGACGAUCUUCGCUGAGUGGCAGCCUGCCAUCAGUGGCCGACUCCCACUCCAGCCACUUCUCUGAGUUCAGCUGCUCCGACCUGGAGAGCAUGAAGACCUCGUGUAGCCACGGCUCCAGCGGUGGCGACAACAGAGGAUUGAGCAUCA` the bound/input enrichment was 0.211 ratio.
`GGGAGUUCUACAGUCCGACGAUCAUGCAUAUGCCGCUCACCAAAAGCAAACUACCACUUCUCAAAUUUCAUUCAGAGCUGUUUUAGUGUUUCCUAUUCCCCACCCUUCCCACUACUUUCAAUGAUCAAAUAUUCUAAGUUCUCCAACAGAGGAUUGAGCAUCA` has a bound/input enrichment of 2.07 ratio.
`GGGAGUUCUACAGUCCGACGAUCUUGGGACCAGUUCUCCAAAUAGGAAUAGUAGUAAAAAAAAUAAACAAAAUGAUAUUUAUAUAGAAAAAACAGAAGUUAAAUCAUGUAGGGUAAAUGCUGCUAAUGUUCCAAGCCCUAAAGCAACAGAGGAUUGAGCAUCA` gave a bound/input enrichment of 1.55 ratio.
The bound/input enrichment of `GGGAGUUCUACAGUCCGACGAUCCUCUCUGAGCGGGAGCCUGCCGUCUGUGGCCGAUUCGCACUGCAGCCACUUCUCGGAGUUCAGCUGCUCCGACCUGGACGCCUGCCGUCCACACGAACUGCAUUCUAGGCCUUCGAAUGCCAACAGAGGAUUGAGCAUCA` is reported as 0.377 ratio.
`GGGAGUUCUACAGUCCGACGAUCAUAAUCACUCUAAUUGUAAUCUGAAUACAGUGUAACAUUGUGUAGCCUUUUUGUAUAAAAUAGACAAAUAGAAAUGGUCCAAUUAGUUUCCUUUUUAAUAUGCUUAAAAUAAGCAGGUGGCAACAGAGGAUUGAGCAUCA` gave a bound/input enrichment of 2.49 ratio.

Repeated from above (block 1):
The fluorescence intensity of `GAAGCGTAAAGTAGTCTCATGAAGTAGATGAGTTAGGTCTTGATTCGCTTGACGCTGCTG` is reported as 541 a.u.
For `CTATTCTTTCTTCTTCATGTGCATGCACTCTTTTTCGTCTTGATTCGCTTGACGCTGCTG`, the fluorescence intensity was 705 a.u.
The fluorescence intensity of `GAAAGTATTTGGAGGCACGTCCCGGACTAAAGATAGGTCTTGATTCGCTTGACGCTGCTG` is reported as 539 a.u.
With `GAAGTACCAAAAATGCACGTGTCTGTACACAATTAGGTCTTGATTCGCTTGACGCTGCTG` the fluorescence intensity was 6430 a.u.
With `GAACAGCTGTAATCTATCGTGGTCATTTCTTGTTAGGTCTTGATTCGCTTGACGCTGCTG` the fluorescence intensity was 536 a.u.
